{"data": "Measurements from different studies", "note": "A part holds a random share of what one study measured. Substitutions count along the parent as printed."}
{"data": "Series 1", "target": "RNA binding protein fox-1 homolog 2, RRM domain, GST-SBP tag (RBFOX2, Homo sapiens, UniProt O43251-10, residues 100-194)", "technique": "RNA Bind-n-Seq", "form": "RNA", "matrix": "in vitro", "tested at": "365 nM", "setting": "natural RNA segment, single round, ends assumed", "reference": "no-protein control", "reading": "higher = stronger binding", "Construct (chain)": "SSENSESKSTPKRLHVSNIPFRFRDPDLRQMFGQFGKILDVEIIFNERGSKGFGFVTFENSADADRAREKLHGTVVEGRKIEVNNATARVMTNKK"}
{"Oligonucleotide": "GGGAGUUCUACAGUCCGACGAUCUGAUUUCAUUUAGGACAAAUGUGCAUGUUCUGAAUGAAAUGAGAGAAAUGCUGUAUUUAUUGAUAACAUUGGCUAGGAGACUGAUGGACUGGCACACUUUCCUGUUUUAAUGGAAUUCUCGGGUGCCAA", "RBNS enrichment (R)": 0.617}
{"Oligonucleotide": "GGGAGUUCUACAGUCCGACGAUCUUUGAAAAUAAUGAAACCAUGUACCACUGUUUACAUCAUCUGUAGUGAUUUCAUAGAUAAUAUAUUUAAUAUGACAGAUUAUGUUUCAACUCUGUAGAUGUUUAACGUCAUGGAAUUCUCGGGUGCCAA", "RBNS enrichment (R)": 0.464}
{"Oligonucleotide": "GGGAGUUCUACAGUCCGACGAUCGAAACCUUAUGGCUUAAAAUUCCUUAACUCCUUUUUGAUUCAUGUUUGUAGUCAUGUUGUCAACAGAGGCAAAGUUAAGCUUGAUGAUGGUUAAAAUCGGUUUGAUAGCAUGGAAUUCUCGGGUGCCAA", "RBNS enrichment (R)": 2.01}
{"Oligonucleotide": "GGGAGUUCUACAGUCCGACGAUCAACUCCCACCUUACAUGUCUCACACUAUCCCAUGGUUGGCAUUACACUCACUCCUGUUCCCUUAUUCUUCAUUCCCAGUAAUUCCCUACCAAAUGGUGGGGACCCUGAGCUGGAAUUCUCGGGUGCCAA", "RBNS enrichment (R)": 0.646}
{"Oligonucleotide": "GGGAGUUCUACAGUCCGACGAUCACUGUUAGGGUACAUACGCUACCUUGAUGAAAGGGACCUUCGUGCAACUGUAGUCAUCUUAAAGGCUUCUCAUCCACUGUGCUUCUUAAUGUGUAAUUAAAGUGAGGAGAUGGAAUUCUCGGGUGCCAA", "RBNS enrichment (R)": 0.25}
{"data": "Series 2", "target": "CCND3, cyclin fold, Cln2 fusion (human)", "technique": "yeast growth competition, sequencing", "matrix": "yeast", "setting": "weak parent motif", "reference": "not given", "reading": "higher = stronger binding", "starting sequence": "CDKN1A docking peptide (human); SKACRRLFGPVDS"}
{"Change": "SKACRRLFGLVDS [P10L]", "normalised enrichment score": -0.139}
{"Change": "SKNCRRLFGPVDS [A3N]", "normalised enrichment score": -0.442}
{"Change": "SKACRRLNGPVDS [F8N]", "normalised enrichment score": -0.133}
{"Change": "SKACRCLFGPVDS [R6C]", "normalised enrichment score": 0.184}
{"data": "Series 3", "target": "Ras GTPase-activating protein-binding protein 1, RRM domain (G3BP1, Homo sapiens, UniProt Q13283)", "technique": "RNA Bind-n-Seq", "form": "RNA", "matrix": "in vitro", "tested at": "1 µM", "setting": "whole 134-nt RNA, ends assumed", "added": "150 mM KCl", "reference": "input library", "reading": "higher = stronger binding", "chain of UniProt Q13283 (whole entry, looked up)": "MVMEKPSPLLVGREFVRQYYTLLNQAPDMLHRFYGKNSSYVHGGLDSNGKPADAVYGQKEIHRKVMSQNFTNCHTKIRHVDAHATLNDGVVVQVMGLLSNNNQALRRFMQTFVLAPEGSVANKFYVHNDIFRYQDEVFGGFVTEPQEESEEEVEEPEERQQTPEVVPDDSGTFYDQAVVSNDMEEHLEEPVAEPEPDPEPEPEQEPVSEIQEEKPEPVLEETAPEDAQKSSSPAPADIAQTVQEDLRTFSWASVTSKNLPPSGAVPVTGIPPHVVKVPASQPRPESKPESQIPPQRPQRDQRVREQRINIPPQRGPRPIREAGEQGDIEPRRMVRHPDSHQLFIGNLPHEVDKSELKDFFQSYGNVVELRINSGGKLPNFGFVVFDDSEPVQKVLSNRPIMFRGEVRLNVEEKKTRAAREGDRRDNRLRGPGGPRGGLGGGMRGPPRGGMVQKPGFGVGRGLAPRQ"}
{"Oligonucleotide": "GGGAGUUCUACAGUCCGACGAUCUAACUUUAGAGGAGGAUCUGAUGGAUAUGGCAGCGGACGUGGAUUUGGGGAUGGCUAUAAUGGGUAUGGAGGAGGACCUGGAGGUGGCAAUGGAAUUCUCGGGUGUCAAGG", "log2 enrichment": -0.899}
{"Oligonucleotide": "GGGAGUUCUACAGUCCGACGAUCCACAGACAACACGCACCCACACAGACACAGAGGGAAGGGGUUGGGAUGGGGACAGGGUGCACAGCAGGGCGGGGUAGGACCACAGCCCCUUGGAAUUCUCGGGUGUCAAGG", "log2 enrichment": -0.384}
{"Oligonucleotide": "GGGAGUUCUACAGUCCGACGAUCUAACUUUAGAGGAGGAUCUGAUGGAUAUGGCAGUGGACGUGGAUUUGGGGAUGGCUAUAAUGGGUAUGGAGGAGGACCUGGAUGUGGCAAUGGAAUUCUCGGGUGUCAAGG", "log2 enrichment": -0.407}
{"Oligonucleotide": "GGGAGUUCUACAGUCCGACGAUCGGGUCUGUUGCAAAUAAAUUCUAUGUUCACAAUGAUAUCUUCAGAUACCAAGAUGAGGUCUUUGGUGGGUUUGUCACUGAGCCUCAGGAGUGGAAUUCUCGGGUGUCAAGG", "log2 enrichment": -0.24}
{"Oligonucleotide": "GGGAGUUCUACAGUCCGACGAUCGUCCUGUGCUACACAUCGUAUGUACCGAAUCGGGCCCCCCGGCCCCCCGGCCCCCCGGGAAAGUAUUAUGUUACGCCGUUCGGAUCUGCAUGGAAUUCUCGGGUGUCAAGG", "log2 enrichment": -0.453}
{"Oligonucleotide": "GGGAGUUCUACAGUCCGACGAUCAAGUCCUGUGCUACACAUCGUAUGUACCGAAUCGGGGUGGGGUUUGGGGAAAGGGGAAAGUAUUAUGUUACGCCGUUCGGAUCUGCACUUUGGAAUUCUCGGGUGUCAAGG", "log2 enrichment": 1.35}
{"Oligonucleotide": "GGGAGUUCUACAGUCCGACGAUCCUGUGCUACACAUCGUAUGUACCGAAUCGGUUUUUUUGGGGUUUUUUUGGGUUUUUUUGGGAAAGUAUUAUGUUACGCCGUUCGGAUCUGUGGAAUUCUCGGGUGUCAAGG", "log2 enrichment": -0.249}
{"data": "Mixed results"}
{"Substance": "PhoQ, residues 284 288 289 292 302 303 TTCLQL", "target": "PhoP, residues 12 14 15 18 19 IFFTR (Escherichia coli, UniProt P23836)", "assay": "Sort-seq, item: YFP reporter", "test system": "E. coli", "setting": "PhoQ-PhoP variant library, added: 10 µM Mg2+", "how to read": "reference: high Mg2+ state, higher = stronger signaling", "endpoint": "fold induction", "value": 2.63}
{"note": "A few entries again (series 1):"}
{"Oligonucleotide": "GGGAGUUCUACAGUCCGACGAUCUUUGAAAAUAAUGAAACCAUGUACCACUGUUUACAUCAUCUGUAGUGAUUUCAUAGAUAAUAUAUUUAAUAUGACAGAUUAUGUUUCAACUCUGUAGAUGUUUAACGUCAUGGAAUUCUCGGGUGCCAA", "RBNS enrichment (R)": 0.464}
{"Oligonucleotide": "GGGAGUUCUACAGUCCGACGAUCGAAACCUUAUGGCUUAAAAUUCCUUAACUCCUUUUUGAUUCAUGUUUGUAGUCAUGUUGUCAACAGAGGCAAAGUUAAGCUUGAUGAUGGUUAAAAUCGGUUUGAUAGCAUGGAAUUCUCGGGUGCCAA", "RBNS enrichment (R)": 2.01}
